Results pooled from the literature.
Protocols differ between the studies behind these lines. Numbers after ± are the reported error.

SMILES = CC1(C)COC(c2c(O)ccc3c4c(c(=O)oc23)CNCC4)OC1; test = fluorescence; test system = PBS with 1% DMSO; setting = 10 µM, 48 h, 37 °C; scale = relative to: initial intensity; endpoint = remaining fluorescence intensity; value = ~60%
SMILES = CC(C)C[C@@H]1NC(=O)CNC(=O)[C@H](CC(N)=O)NC(=O)[C@H](CCCNC(=N)N)NC(=O)[C@H]([C@@H](C)O)NC(=O)[C@@H]2CSSC[C@@H]3NC(=O)[C@H]([C@@H](C)O)NC(=O)CNC(=O)CNC(=O)[C@H](C(C)C)NC(=O)[C@@H]4CSSC[C@H](NC(=O)[C@H]([C@@H](C)O)NC(=O)[C@H](CSSC[C@H](NC(=O)[C@H](C(C)C)NC(=O)[C@@H]5CCCN5C1=O)C(=O)NCC(=O)N[C@@H](CCC(=O)O)C(=O)N[C@@H]([C@@H](C)O)C(=O)N4)NC(=O)CNC(=O)[C@@H]1CCCN1C(=O)[C@H]([C@@H](C)O)NC(=O)[C@H](CC(N)=O)NC3=O)C(=O)N[C@@H](CO)C(=O)N[C@@H](Cc1c[nH]c3ccccc13)C(=O)N1CCC[C@H]1C(=O)N[C@@H](C(C)C)C(=O)N2; test = HPLC; test system = ammonium bicarbonate 0.1 M; setting = 180 µM, 14 days, pH 9.0, 37 °C, deamidation stability; endpoint = remaining peptide; value = 57.3 ± 4.4%
SMILES = CCOC(=O)c1sc(Nc2ncccn2)nc1-c1ccccn1; test system = mouse liver microsomes; setting = 60 min; endpoint = remaining parent; value = 43.3 area %
SMILES = CC(C)C[C@@H]1NC(=O)[C@H](CCCCN)NC(=O)[C@H](CC(N)=O)NC(=O)[C@H](CCCNC(=N)N)NC(=O)[C@H]([C@@H](C)O)NC(=O)[C@@H]2CSSC[C@@H]3NC(=O)[C@H]([C@@H](C)O)NC(=O)CNC(=O)CNC(=O)[C@H](C(C)C)NC(=O)[C@@H]4CSSC[C@H](NC(=O)[C@H](CCCCN)NC(=O)[C@H](CSSC[C@H](NC(=O)[C@H](C(C)C)NC(=O)[C@@H]5CCCN5C1=O)C(=O)NCC(=O)N[C@@H](CCC(=O)O)C(=O)N[C@@H]([C@@H](C)O)C(=O)N4)NC(=O)CNC(=O)[C@@H]1CCCN1C(=O)[C@H]([C@@H](C)O)NC(=O)[C@H](CC(N)=O)NC3=O)C(=O)N[C@@H](CO)C(=O)N[C@@H](Cc1c[nH]c3ccccc13)C(=O)N1CCC[C@H]1C(=O)N[C@@H](C(C)C)C(=O)N2; test = HPLC; test system = ammonium bicarbonate; setting = 180 µM, 7 days, pH 9.0, 25 °C, deamidation stability; endpoint = remaining peptide; value = 99.5 ± 0.4%
SMILES = CC(C)C[C@H](NC(=O)[C@H](N)C(C)C)C(=O)N[C@@H](CCCNC(=N)N)C(=O)N[C@@H](Cc1c[nH]c2ccccc12)C(=O)N[C@@H](CO)C(=O)N[C@@H](CCCNC(=N)N)C(=O)N[C@@H](CCCCN)C(=O)N[C@@H](CC(C)C)C(=O)N1CCC[C@H]1C(=O)N[C@@H](CS)C(=O)N[C@H](C(=O)N[C@@H](CO)C(N)=O)C(C)C; test = 12G5 competition, SUP-T1 cells; test system = human plasma; setting = 20 µM, 8 h, 37 °C; endpoint = remaining activity; value = 60 ± 4%
SMILES = O=C1CC2(CCCC2)CC(=O)N1CCCCN1CCN(c2ncccn2)CC1; test = LC-MS; test system = human liver microsomes; setting = 10 µM, 60 min, pH 7.4, together with: NADPH; scale = relative to: time 0; endpoint = remaining parent compound; value = 15%
SMILES = CSCC[C@H](NC(=O)CN)C(=O)N[C@@H](CCCNC(=N)N)C(=O)N[C@@H](Cc1c[nH]c2ccccc12)C(=O)N[C@@H](CO)C(=O)N[C@@H](CCCNC(=N)N)C(=O)N[C@@H](CCCCN)C(=O)N[C@@H](CCSC)C(=O)N1CCC[C@H]1C(=O)N[C@@H](CS)C(=O)N[C@H](C(=O)N[C@@H](CO)C(N)=O)C(C)C; test = 12G5 competition, SUP-T1 cells; test system = human plasma; setting = 20 µM, 2 h, 37 °C; endpoint = remaining activity; value = 43 ± 3%
SMILES = N#Cc1ccc(Nc2nc(N)cc(Oc3c(F)cc(-c4ccc(C#N)cc4)cc3F)n2)cc1; test system = human plasma, diluted in PBS; setting = 1.00 µM, 1.00 h, 37 °C; endpoint = remaining compound; value = 94%
SMILES = CSCC[C@H](N)C(=O)N[C@H](CC(C)C)C(=O)N[C@@H](CCCNC(=N)N)C(=O)N[C@@H](Cc1c[nH]c2ccccc12)C(=O)N[C@@H](CO)C(=O)N[C@@H](CCCNC(=N)N)C(=O)N[C@@H](CCCCN)C(=O)N[C@@H](CC(C)C)C(=O)N1CCC[C@H]1C(=O)N[C@@H](CS)C(=O)N[C@H](C(=O)N[C@@H](CO)C(N)=O)C(C)C; test = 12G5 competition, SUP-T1 cells; test system = human plasma; setting = 20 µM, 2 h, 37 °C; endpoint = remaining activity; value = 71 ± 2%
SMILES = Cc1cc(C(=O)NC(C)(C)COc2cccc3c2C(N)=NS(=O)(=O)N3)cc(C)n1; test = LC-MS; test system = human liver microsomes; setting = 10 µM, 20 min, pH 7.4, together with: NADPH; scale = relative to: time 0; endpoint = remaining parent compound; value = 100%
SMILES = CC(C)OC(=O)c1sc(Nc2ncccn2)nc1-c1cnccn1; test system = human liver microsomes; setting = 60 min; endpoint = remaining parent; value = 70.9 area %

Excerpt of the above:
SMILES = CC(C)C[C@@H]1NC(=O)CNC(=O)[C@H](CC(N)=O)NC(=O)[C@H](CCCNC(=N)N)NC(=O)[C@H]([C@@H](C)O)NC(=O)[C@@H]2CSSC[C@@H]3NC(=O)[C@H]([C@@H](C)O)NC(=O)CNC(=O)CNC(=O)[C@H](C(C)C)NC(=O)[C@@H]4CSSC[C@H](NC(=O)[C@H]([C@@H](C)O)NC(=O)[C@H](CSSC[C@H](NC(=O)[C@H](C(C)C)NC(=O)[C@@H]5CCCN5C1=O)C(=O)NCC(=O)N[C@@H](CCC(=O)O)C(=O)N[C@@H]([C@@H](C)O)C(=O)N4)NC(=O)CNC(=O)[C@@H]1CCCN1C(=O)[C@H]([C@@H](C)O)NC(=O)[C@H](CC(N)=O)NC3=O)C(=O)N[C@@H](CO)C(=O)N[C@@H](Cc1c[nH]c3ccccc13)C(=O)N1CCC[C@H]1C(=O)N[C@@H](C(C)C)C(=O)N2; test = HPLC; test system = ammonium bicarbonate 0.1 M; setting = 180 µM, 14 days, pH 9.0, 37 °C, deamidation stability; endpoint = remaining peptide; value = 57.3 ± 4.4%
